Results gathered from unrelated publications.
Each line is one published result; not all experiments were run side by side. “And” joins repeats or separate records; there may be more than shown.
TDP1: Tyrosyl-DNA phosphodiesterase 1 (TDP1, Homo sapiens, UniProt Q9NUW8)
UniProt Q9NUW8, sequence (whole entry, looked up): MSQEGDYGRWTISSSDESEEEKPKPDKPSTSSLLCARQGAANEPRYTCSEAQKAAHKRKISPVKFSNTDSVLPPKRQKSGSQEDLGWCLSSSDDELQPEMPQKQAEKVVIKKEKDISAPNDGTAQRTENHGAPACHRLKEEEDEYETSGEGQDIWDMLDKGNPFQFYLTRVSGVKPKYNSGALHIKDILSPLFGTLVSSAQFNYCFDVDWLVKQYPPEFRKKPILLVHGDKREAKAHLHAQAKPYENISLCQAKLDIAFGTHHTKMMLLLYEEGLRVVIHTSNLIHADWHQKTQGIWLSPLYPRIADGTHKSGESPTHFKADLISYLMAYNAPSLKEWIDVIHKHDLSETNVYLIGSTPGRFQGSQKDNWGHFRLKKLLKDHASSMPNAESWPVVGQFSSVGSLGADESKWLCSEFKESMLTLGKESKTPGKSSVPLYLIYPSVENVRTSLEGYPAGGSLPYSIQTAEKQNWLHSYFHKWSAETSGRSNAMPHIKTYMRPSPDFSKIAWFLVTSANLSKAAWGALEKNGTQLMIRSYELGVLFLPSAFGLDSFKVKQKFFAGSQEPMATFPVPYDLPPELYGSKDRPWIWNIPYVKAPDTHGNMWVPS

SMILES	tested on	assay	setting	how to read	endpoint	result
O=C(C[Se]C(=O)c1ccccc1Nc1ccccc1)Nc1cccc(C(F)(F)F)c1	NCI60 CNS subpanel	NCI60 five-dose screen			mean TGI	3.54 µM
CN1CCCNC(=O)c2cccc(c2)C(=O)NCCCN(C)CCCNc2cccc3c2C(=O)c2cccc(c2C3=O)NCCC1	SAS	RNA-Seq, measured: METAP1 mRNA	1 µM, 6 h	reference: untreated cells	log2 fold change	-1.09
Cc1ncsc1-c1ccc(C(C)NC(=O)C2CC(O)CN2C(=O)C(NC(=O)CCCCCCCCCCN2CCCC(Nc3ncc(Cl)c(Nc4ccccc4S(=O)(=O)C(C)C)n3)C2)C(C)(C)C)cc1 (stereo not drawn)	22Rv1	RNA-seq, measured: ZNF546 mRNA	concentration not given	reference: DMSO	log2 fold change	-2.46
COC(=O)C1=C(C)Oc2ccc(Br)cc2C1C(C(C)=O)C(=O)OC (stereo not drawn)	3T3-L1 preadipocytes	adipogenesis, Oil Red O staining	IC20, 14 days		mean lipid content	0.71 OD492
COC(=O)c1cc(NC2=NC(=O)C(=Cc3ccc(N(C)C)cc3)S2)ccc1OC(C)=O	A549	measured: ODF2	2.93 µM, 24 h	reference: DMSO	mRNA level	0.0059 fold change
COc1ccccc1-c1ccncc1C(=O)Nc1nnc(OCc2ccc(Cl)cc2)s1	DLD-1 BRCA2-/-		0.125 µM, mean of replicates		colony count	46 and 39.5 and 38
Cc1cc(Cl)cc(-c2ccnc3cc(CN4C(=O)C5C(C4=O)C5(C)C)sc23)c1C[C@@H]1CNCCO1 (stereo partly drawn)	CHP-212 parental	PI flow cytometry	0.3 µM, 24 h		G1 phase cells	67.7%
Cn1ncc2cc(-c3cncc(Cl)c3N3CCC4(CCNC4=O)CC3)ccc21	LS174T	gene expression, microarray, measured: CARD6 mRNA	concentration not given, 24 h	reference: untreated cells	log2 fold change	-2.16
O=C(Nc1nnc2c1c(-c1ccc(Cl)cc1)nc1sc(=Cc3ccco3)c(=O)n12)c1ccccc1 (mixture of isomers)	HOP-92	SRB	10 µM, NCI60 single-dose screen	reference: untreated	cell growth	57.2%
COc1ccc(Br)c2c1OC1=C(C(=O)CCC1)C2c1c[nH]c2ccccc12 (stereo not drawn)	3T3-L1 preadipocytes	adipogenesis, Oil Red O staining	IC20, 14 days		mean lipid content	0.788 OD492
C=CC(=O)Nc1cc(Nc2nccc(-c3c(-c4ccccc4)n(C)c4ccccc34)n2)c(OC)cc1N(C)CCN(C)C	NCI-H1975	cell growth or viability, MTT	0.5 µM, 72 h		inhibition	59.5%
CCCC(CCC)C(=O)OCc1cn(-c2cc3ccccc3oc2=O)nn1	HOP-62	NCI60 single-dose screen	10 µM		growth percentage	98.3%
COn1c(-c2ccccc2)c(C=NOCc2ccc3nc(-c4ccccc4)c(Nc4ccc(C(=O)O)cc4)n3c2)c2ccccc21	TDP1	enzyme activity, inhibitor	100 µM, unpurified compound		inhibition	34%
N=C(N)NCCC[C@@H](NC(=O)[C@H](Cc1ccccc1)NC(=O)[C@H](Cc1ccccc1)NC(=O)[C@@H](CCCNC(=N)N)NC(=O)CCCC[C@@H]1SC[C@@H]2NC(=O)N[C@@H]21)C(N)=O	MDBK	MitoTracker Red CMXRos	1 µM, serum-free medium	reference: untreated cells	mitochondrial membrane potential	~3 fold
CCN(C(=O)c1cc(F)ccc1Oc1nncnc1N1CCC2(C1)CN([C@H](CCCN(C)CCOC)C(C)C)C2)C(C)C	C-33-A	cell growth or viability	72 h		GI50	> 10 µM
CC(=O)Oc1ccccc1C(=O)[Se]CC(=O)Nc1cccc(C(F)(F)F)c1	NCI60 melanoma subpanel	total growth inhibition, inhibitor	five-dose		mean TGI	5.2 µM
CCN(CC)CC(=O)Nc1cccc(-n2cc(-c3ccc4ccc(-c5cn(-c6cccc(NC(=O)CN(CC)CC)c6)nn5)cc4c3)nn2)c1	RCC4	PCR angiogenesis array, measured: EPHB4	5 x IC50, 4 h, normoxia	reference: untreated	fold regulation	-1.4

SMILES	tested on	assay	setting	how to read	endpoint	result
CNS(=O)(=O)Nc1nccc(Cc2c(C)c3ccc(Oc4ncccc4F)cc3oc2=O)c1F	Hs 683	cell viability	7 days		IC50	> 1 µM
O=C(C[Se]C(=O)c1ccccc1Nc1cccc(C(F)(F)F)c1)Nc1cccc(C(F)(F)F)c1	NCI60 leukaemia subpanel	NCI60 five-dose screen			GI50	1.69 µM
CN(C)C(=O)c1ccc(N2Cc3cn(Cc4ccc(F)cc4)nc3C2)cc1	HEK293 expressing GluA1 and GluA2	glutamate excitotoxic cell death, CellTox Green	together with: glutamate		IC50	0.0086 µM
COc1cc(N(C)CCN(C)C)c(NC(=O)/C=C/c2ccc(C(C)(C)C)cc2)cc1Nc1nccc(-c2cn(C)c3ccccc23)n1	NCI-H1975	cell growth or viability, MTT	0.5 µM, 72 h		inhibition	67.3%
CCOC(=O)c1ccc(-n2c(N)c(C#N)c(SC)c(C#N)c2=O)cc1	HepG2	cell growth or viability, MTT	50 µM, 24 h		viability	42.7%
Cc1ccc(-n2cc(CSc3nc4ccccc4n3Cc3cn(-c4ccc(C)cc4)nn3)nn2)cc1	HEK293	MTT	250 ppm		cytotoxicity	90.9%
C=CC(=O)Nc1cc(Nc2nccc(-c3c(-c4ccc(OC)c5ccccc45)n(C)c4ccccc34)n2)c(OC)cc1N(C)CCN(C)C	NCI-H1975	cell growth or viability, MTT	0.5 µM, 72 h		inhibition	64.2%
O=C(N1CCCC1)n1cc(-c2ccc(-c3ccccc3)cc2)nn1	mouse T cells	N-terminal labeling proteomics, measured: S100a6 N-terminal peptide	0.001 µM, 6 h	reference: DMSO	SILAC ratio	1.22 and 1.09 and 0.96 and 1.05
CCc1n(CC(=O)O[C@@H]2C[C@H](C)CC[C@H]2C(C)C)c2ccccc2[n+]1C	HTS cells (mouse)	gene microarray, measured: TRIB3	1 µM, 6 h, unit not given	reference: untreated	mRNA level	5.76
O=C(C[Se]C(=O)c1cc2ccccc2s1)Nc1cccc(C(F)(F)F)c1	NCI60 melanoma subpanel	cell growth	10 µM, 48 h, one-dose		mean growth percent	-80.6%
Cc1ccc(S(=O)(=O)n2cccc2C=NOCc2ccc3nc(-c4ccccc4)c(Nc4ccc(C(=O)O)cc4)n3c2)cc1 (mixture of isomers)	TDP1	enzyme activity, inhibitor	100 µM, unpurified compound		inhibition	27.4%
COc1cc(N(C)CCN(C)C)c(NC(=O)/C=C/c2ccc(F)cc2)cc1Nc1nccc(-c2cn(C)c3ccccc23)n1	NCI-H1975	cell growth or viability, MTT	0.5 µM, 72 h		inhibition	62.9%
O=C(C[Se]C(=O)C12CC3CC(CC(C3)C1)C2)Nc1cccc(C(F)(F)F)c1	NCI60 CNS subpanel	NCI60 five-dose screen			mean TGI	5.3 µM
CC(C)c1ccc(N(C)c2ccc3c(c2)OCC[C@H]3CNc2cnccc2C(=O)O)cc1	TE-1	cell growth or viability, ATP luminescence	7 days		IC50	≥ 10 µM
O=C(C[Se]C(=O)c1cc2ccccc2o1)Nc1cccc(C(F)(F)F)c1	NCI60 melanoma subpanel	cell growth	10 µM, 48 h, one-dose		mean growth percent	-73.9%
C1=[N+]2CCCC[N+]3=Cc4ccc5[n]4[Au-]23[n]2c1ccc2-c1nc2ccccc2nc1-5.F[P-](F)(F)(F)(F)F	UACC-257	NCI60 five-dose screen			TGI	4 -log M

Some of these lines once more:
SMILES	tested on	assay	setting	how to read	endpoint	result
Cc1ccc(-n2cc(CSc3nc4ccccc4n3Cc3cn(-c4ccc(C)cc4)nn3)nn2)cc1	HEK293	MTT	250 ppm		cytotoxicity	90.9%
C=CC(=O)Nc1cc(Nc2nccc(-c3c(-c4ccc(OC)c5ccccc45)n(C)c4ccccc34)n2)c(OC)cc1N(C)CCN(C)C	NCI-H1975	cell growth or viability, MTT	0.5 µM, 72 h		inhibition	64.2%
